# Measured values of several laboratories.
# Every numbered part comes from another study and shows a few of its results, in no order.

# Block 1 — method: protein binding microarray; molecule type: double-stranded DNA, one strand shown; sample: in vitro; concentration: not given; relative to: not given; direction: higher = stronger binding
# Target: Histone acetyltransferase KAT6A, winged helix 2, GST fusion (KAT6A, Homo sapiens, UniProt Q92794, residues 85-181)
# Notes: 8-mer, flanks averaged, mean of 2 arrays, mostly near background
# Residues (chain): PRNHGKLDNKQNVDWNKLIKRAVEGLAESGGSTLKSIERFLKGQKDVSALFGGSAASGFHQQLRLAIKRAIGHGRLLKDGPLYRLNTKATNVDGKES
Strand,E-score
CAACCCGA,0.0914
CCACGAAA,-0.0102
TCCTTCGA,0.0336
GTCCACAC,0.155

# Block 2 — method: protein-binding microarray; molecule type: double-stranded DNA, one strand shown; sample: in vitro; concentration: 250 nM; notes: 60-bp whole probe; added: salmon DNA 0.4 mg/ml; relative to: random background probes; direction: higher = stronger binding
# Target: Interferon regulatory factor 5, full length, phosphomimetic (IRF5, Homo sapiens, UniProt Q13568-2, residues 1-514, K96S/S451D/S453D/S456D/S462D)
Strand,log fluorescence [z-score]
GCCTAGCACGACGGTATCCTACTGCTGACGTGCTAGGTCTTGATTCGCTTGACGCTGCTG,-0.0839
GCCTAGCACGACGGTATCGACTTTCTGGACGTGCTAGTCTTGATTCGCTTGACGCTGCTG,2.88
GCCTAGCACTTAGACTTCGGGACTGGATTAGTGCTAGTCTTGATTCGCTTGACGCTGCTG,-0.133

# Block 3 — method: protein-binding microarray; molecule type: double-stranded DNA, one strand shown; sample: in vitro; concentration: not given; direction: higher = stronger binding
# Target: TATA-box-binding protein 1 (TBP1, Arabidopsis thaliana, UniProt P28147, residues 1-200, full length assumed)
# Notes: k-mer, scored over probes, only values ≥0.25
# Target sequence (chain): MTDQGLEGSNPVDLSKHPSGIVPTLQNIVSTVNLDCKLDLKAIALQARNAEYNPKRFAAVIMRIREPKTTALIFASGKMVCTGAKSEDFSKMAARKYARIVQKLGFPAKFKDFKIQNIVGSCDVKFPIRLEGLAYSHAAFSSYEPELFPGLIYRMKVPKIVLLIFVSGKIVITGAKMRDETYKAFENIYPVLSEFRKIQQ
Strand,E-score
AAGTTAA,0.264
AAATACT,0.292
CTTTAAA,0.41

# Further values, each from its own experiment
Molecule,target,test,test system,conditions,how to read,endpoint,value
"PhoQ, residues 284 288 289 292 302 303 WSHMKI","PhoP, residues 12 14 15 18 19 TPWLV (Escherichia coli, UniProt P23836)","Sort-seq, item: YFP reporter",E. coli,"PhoQ-PhoP variant library, added: 10 µM Mg2+","relative to: high Mg2+ state, higher = stronger signaling",fold induction,4.59

# A few entries again (block 3):
Strand,E-score
AAGTTAA,0.264
AAATACT,0.292
